{"data": "Published values gathered from unrelated publications", "HTR3A": "5-hydroxytryptamine receptor 3A (HTR3A, Homo sapiens, UniProt P46098)", "CGAS": "Cyclic GMP-AMP synthase (CGAS, Homo sapiens, UniProt Q8N884)", "PIK3CB": "Phosphatidylinositol 4,5-bisphosphate 3-kinase catalytic subunit beta isoform (PIK3CB, Homo sapiens, UniProt P42338)", "note": "Each line is one published result; not all experiments were run side by side. Several values in a cell are separate wells, animals, samples, runs or records. ± gives the spread as reported.", "sequence of UniProt P46098 (whole entry, looked up)": "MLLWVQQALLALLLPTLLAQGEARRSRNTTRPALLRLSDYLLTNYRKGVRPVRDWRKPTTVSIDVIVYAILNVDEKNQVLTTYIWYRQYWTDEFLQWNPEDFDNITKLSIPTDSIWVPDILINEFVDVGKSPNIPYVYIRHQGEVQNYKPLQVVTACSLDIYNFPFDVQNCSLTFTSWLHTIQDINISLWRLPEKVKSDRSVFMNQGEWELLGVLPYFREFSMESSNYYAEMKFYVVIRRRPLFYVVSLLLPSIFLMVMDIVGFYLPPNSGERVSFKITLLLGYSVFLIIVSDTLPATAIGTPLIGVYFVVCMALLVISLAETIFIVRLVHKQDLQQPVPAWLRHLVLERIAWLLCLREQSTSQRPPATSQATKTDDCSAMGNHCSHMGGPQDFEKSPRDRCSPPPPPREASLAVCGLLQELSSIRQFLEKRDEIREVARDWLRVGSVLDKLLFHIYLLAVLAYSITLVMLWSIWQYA", "sequence of UniProt Q8N884 (whole entry, looked up)": "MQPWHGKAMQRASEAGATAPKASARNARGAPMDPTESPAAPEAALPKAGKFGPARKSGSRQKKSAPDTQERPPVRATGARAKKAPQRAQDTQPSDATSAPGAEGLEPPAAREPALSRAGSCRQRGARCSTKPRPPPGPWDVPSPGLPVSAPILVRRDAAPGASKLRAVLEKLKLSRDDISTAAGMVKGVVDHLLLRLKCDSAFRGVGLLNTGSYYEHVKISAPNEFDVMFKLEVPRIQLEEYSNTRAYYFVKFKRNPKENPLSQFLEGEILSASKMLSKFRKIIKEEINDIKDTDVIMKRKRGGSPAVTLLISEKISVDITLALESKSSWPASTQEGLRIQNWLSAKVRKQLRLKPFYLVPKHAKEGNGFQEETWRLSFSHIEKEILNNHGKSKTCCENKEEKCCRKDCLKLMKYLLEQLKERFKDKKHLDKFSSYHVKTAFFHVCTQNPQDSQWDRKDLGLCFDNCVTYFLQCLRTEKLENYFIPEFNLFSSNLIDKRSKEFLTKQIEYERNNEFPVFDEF", "sequence of UniProt P05067 (whole entry, looked up)": "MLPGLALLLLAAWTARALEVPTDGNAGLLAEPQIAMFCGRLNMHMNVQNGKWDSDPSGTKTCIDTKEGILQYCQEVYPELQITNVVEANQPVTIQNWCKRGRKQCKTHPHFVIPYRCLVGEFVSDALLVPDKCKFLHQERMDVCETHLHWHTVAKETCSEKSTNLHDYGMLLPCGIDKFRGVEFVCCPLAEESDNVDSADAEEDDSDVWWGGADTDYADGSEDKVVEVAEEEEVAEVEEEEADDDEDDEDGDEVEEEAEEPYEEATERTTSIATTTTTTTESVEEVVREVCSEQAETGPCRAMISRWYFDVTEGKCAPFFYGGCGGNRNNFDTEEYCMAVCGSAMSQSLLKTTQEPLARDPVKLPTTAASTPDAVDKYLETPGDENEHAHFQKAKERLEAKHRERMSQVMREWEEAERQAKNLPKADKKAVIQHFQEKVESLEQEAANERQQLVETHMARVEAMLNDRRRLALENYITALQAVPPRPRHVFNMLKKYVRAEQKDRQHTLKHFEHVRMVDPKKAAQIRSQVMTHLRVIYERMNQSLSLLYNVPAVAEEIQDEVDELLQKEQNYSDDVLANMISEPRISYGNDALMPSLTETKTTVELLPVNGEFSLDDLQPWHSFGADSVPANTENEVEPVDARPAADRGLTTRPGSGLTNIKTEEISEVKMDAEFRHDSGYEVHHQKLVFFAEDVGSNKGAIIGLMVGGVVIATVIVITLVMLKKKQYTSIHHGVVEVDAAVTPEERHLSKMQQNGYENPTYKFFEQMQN", "sequence of UniProt P42338 (whole entry, looked up)": "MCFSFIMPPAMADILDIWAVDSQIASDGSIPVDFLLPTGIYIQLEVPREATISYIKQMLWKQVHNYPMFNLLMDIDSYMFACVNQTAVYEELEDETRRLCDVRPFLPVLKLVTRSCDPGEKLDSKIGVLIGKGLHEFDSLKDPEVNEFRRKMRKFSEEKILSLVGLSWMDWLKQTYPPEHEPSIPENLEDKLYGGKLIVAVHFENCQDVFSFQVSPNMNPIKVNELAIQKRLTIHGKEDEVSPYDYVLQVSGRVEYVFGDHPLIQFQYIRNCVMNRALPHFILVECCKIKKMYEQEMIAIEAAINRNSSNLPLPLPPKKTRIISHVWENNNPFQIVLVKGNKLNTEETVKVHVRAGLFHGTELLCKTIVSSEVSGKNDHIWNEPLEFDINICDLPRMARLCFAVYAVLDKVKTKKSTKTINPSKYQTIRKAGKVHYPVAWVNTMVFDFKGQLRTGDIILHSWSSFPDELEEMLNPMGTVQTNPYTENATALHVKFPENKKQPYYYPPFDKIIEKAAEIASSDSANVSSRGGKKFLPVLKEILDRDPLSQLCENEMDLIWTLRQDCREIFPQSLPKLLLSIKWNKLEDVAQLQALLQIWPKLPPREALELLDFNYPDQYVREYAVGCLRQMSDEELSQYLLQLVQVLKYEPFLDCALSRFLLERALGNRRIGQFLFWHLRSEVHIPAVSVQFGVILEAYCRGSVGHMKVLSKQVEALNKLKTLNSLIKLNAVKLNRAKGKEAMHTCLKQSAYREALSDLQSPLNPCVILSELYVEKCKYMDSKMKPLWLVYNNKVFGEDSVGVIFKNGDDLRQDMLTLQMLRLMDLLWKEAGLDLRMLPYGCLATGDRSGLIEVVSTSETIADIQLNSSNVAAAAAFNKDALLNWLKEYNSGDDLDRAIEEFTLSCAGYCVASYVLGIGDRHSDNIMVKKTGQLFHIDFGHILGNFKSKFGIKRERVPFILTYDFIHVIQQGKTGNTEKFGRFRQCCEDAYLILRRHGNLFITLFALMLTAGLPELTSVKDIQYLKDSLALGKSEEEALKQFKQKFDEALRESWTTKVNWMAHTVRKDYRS", "sequence of UniProt P54750 (whole entry, looked up)": "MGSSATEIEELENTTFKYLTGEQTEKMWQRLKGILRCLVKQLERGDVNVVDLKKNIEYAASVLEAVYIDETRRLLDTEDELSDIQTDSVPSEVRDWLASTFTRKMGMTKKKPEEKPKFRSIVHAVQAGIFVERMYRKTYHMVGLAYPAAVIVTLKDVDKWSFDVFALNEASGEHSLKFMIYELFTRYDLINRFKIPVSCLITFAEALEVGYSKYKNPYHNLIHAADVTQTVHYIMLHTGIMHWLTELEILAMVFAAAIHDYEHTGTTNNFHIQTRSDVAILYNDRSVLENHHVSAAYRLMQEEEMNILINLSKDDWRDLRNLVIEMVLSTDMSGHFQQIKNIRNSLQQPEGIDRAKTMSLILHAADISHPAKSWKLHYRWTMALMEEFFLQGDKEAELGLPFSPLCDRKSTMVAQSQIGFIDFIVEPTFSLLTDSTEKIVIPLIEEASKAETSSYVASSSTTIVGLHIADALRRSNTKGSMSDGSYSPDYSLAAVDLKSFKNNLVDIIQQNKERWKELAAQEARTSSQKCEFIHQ", "sequence of UniProt P27815 (whole entry, looked up)": "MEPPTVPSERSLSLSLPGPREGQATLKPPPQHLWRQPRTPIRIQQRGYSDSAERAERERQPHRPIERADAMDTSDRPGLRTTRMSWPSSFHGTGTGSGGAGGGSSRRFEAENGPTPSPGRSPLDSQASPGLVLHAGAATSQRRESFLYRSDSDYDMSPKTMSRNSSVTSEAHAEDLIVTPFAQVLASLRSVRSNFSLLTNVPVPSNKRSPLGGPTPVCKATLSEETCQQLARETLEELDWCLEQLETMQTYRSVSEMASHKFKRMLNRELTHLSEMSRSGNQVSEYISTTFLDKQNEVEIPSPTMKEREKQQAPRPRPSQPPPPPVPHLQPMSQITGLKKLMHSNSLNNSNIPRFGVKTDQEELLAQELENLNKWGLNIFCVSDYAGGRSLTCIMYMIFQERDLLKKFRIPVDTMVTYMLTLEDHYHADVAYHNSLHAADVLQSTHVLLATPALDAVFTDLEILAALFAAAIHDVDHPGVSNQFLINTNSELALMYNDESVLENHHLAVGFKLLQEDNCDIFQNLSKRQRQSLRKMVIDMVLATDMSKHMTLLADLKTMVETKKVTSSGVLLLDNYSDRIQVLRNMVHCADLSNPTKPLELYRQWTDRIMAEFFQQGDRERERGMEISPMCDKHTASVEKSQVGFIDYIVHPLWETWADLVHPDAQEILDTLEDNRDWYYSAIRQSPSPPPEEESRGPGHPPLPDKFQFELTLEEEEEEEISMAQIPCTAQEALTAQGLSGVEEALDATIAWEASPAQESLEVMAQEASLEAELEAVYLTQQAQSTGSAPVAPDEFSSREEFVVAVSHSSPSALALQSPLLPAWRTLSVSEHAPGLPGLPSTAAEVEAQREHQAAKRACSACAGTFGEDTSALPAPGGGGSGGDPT", "sequence of UniProt P32745 (whole entry, looked up)": "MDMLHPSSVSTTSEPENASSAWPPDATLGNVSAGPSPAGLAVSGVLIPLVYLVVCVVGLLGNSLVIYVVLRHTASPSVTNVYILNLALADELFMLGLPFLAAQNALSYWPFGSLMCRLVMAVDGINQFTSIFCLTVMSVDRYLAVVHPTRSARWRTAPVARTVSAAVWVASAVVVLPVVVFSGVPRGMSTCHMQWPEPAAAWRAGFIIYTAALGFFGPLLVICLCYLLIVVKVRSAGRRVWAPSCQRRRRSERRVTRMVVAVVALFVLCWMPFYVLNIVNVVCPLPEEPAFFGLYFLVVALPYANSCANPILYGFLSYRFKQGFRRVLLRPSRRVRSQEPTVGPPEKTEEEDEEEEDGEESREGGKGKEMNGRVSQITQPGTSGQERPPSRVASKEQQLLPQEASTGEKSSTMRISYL", "sequence of UniProt P19784 (whole entry, looked up)": "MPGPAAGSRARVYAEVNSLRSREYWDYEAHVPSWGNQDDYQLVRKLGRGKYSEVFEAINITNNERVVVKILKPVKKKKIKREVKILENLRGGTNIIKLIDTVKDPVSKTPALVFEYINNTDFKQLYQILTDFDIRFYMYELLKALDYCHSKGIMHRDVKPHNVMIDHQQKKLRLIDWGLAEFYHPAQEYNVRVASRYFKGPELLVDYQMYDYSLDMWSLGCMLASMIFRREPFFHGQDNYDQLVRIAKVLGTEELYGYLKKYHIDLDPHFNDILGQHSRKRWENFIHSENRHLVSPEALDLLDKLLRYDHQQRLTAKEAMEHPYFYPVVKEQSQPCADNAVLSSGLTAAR"}
{"Compound": "Clc1cncc(OC[C@H]2CN(CCN3CCc4ccccc43)CCO2)c1", "target": "HTR3A", "test": "radioligand binding", "setting": "concentration not given, added: [3H]GR65630", "inhibition": "-9.7%"}
{"Compound": "Cc1nn(-c2nc3ccccc3[nH]2)c(O)c1C(c1ccccc1C(=O)O)c1c(C)nn(-c2nc3ccccc3[nH]2)c1O", "target": "CGAS", "test": "enzyme activity, inhibitor, PPiase-coupled", "setting": "12.5 µM, 1.5 h", "inhibition": "74.2%"}
{"Compound": "CN1CCN(c2cc(-c3ccncc3)c(-c3ccc4ccccc4c3)nn2)CC1", "target": "SSTR3 (Homo sapiens, UniProt P32745)", "test": "antagonist, FLIPR", "setting": "10 µM", "inhibition": "20.8%"}
{"Compound": "NC/C(=C\\F)COc1cccc(Cn2c(=S)[nH]c(=O)c3[nH]cnc32)c1", "target": "Myeloperoxidase (MPO, Homo sapiens, UniProt P05164)", "test": "enzyme activity", "setting": "0.1111 µM", "inhibition": "90.8%"}
{"Compound": "O=C(Nc1cccc2c(=O)cc(-c3nnn[nH]3)oc12)c1ccc(OCCCCc2ccccc2)cc1", "target": "Volume-regulated anion channel subunit LRRC8C, part LRRC8A IL1 chimera (LRRC8C, Homo sapiens, UniProt Q8TDW0, E6A)", "test": "ion current, inhibitor, whole-cell patch clamp", "test system": "HCT LRRC8-/- cells", "setting": "1 µM, +100 mV", "inhibition": "80.8% and 91.1% and 86.4% and 90.8%"}
{"Compound": "OO", "target": "Histone acetyltransferase GCN5, with Ada2 and Ada3 (Saccharomyces cerevisiae S288c, UniProt Q03330)", "test": "enzyme activity", "setting": "1 mM, added: Gcn5-Ada2-Ada3 complex, without DTT", "inhibition": "8 ± 8%"}
{"Compound": "COc1ccc(F)cc1C(=O)NCc1ccc(-c2nn([C@@H](C)C(F)(F)F)c(N)c2C(N)=O)cc1", "target": "PIK3CB", "test": "target engagement, competitive chemoproteomics", "test system": "human PBMCs", "setting": "10 µM", "inhibition": "9.1%"}
{"Compound": "Cc1nn(-c2nc3ccccc3s2)c(O)c1C(c1ccccc1C(=O)O)c1c(C)nn(-c2nc3ccccc3s2)c1O", "target": "Cyclic GMP-AMP synthase, catalytic domain; with DNA (CGAS, Homo sapiens, UniProt Q8N884)", "test": "cGAS phase separation, inhibitor", "setting": "5 µM", "inhibition": "96.8%"}
{"Compound": "Cc1cc2c(cc1N1C(=O)c3cccc4c(CCCO)ccc(c34)C1=O)n(C)c(=O)n2C (racemic)", "target": "Transcription intermediary factor 1-alpha, PHD-bromodomain (TRIM24, Homo sapiens, UniProt O15164)", "test": "binding, BROMOscan", "setting": "1000 nM, PHD-bromodomain", "inhibition": "78%"}
{"Compound": "O=C(O)c1cc(O)c2c(c1)C(=O)c1cc(O)cc(O)c1C2=O", "target": "AVPR1A (Homo sapiens, UniProt P37288)", "test": "calcium mobilization, antagonist, fluorimetry", "setting": "50 µM, added: 10 nM vasopressin", "inhibition": "0.85 ± 10.7%"}
{"Compound": "O=C(CN1CCO[C@@H](COc2cccnc2)C1)N1CCc2ccccc21", "target": "HTR3A", "test": "radioligand binding", "setting": "concentration not given, added: [3H]GR65630", "inhibition": "6.9%"}
{"Compound": "CCN(CC)c1ccc(C2=NNC(=O)CC2C)cc1[N+](=O)[O-] (centres unmarked)", "target": "Dual specificity calcium/calmodulin-dependent 3',5'-cyclic nucleotide phosphodiesterase 1A, PDE1A1 isoform (PDE1A, Homo sapiens, UniProt P54750)", "test": "enzyme activity", "setting": "100 nM", "inhibition": "3% and 7%"}
{"Compound": "C[C@@H]1CCO[C@H]2Cn3cc(C(=O)NCc4ccc(F)cc4F)c(=O)c(O)c3C(=O)N12", "target": "SLC22A3 (Homo sapiens, UniProt O75751)", "test": "transport", "test system": "MDCK-II, transfected", "setting": "0.1 µM, added: MPP+ 2 µM", "inhibition": "4.14%"}
{"Compound": "N[C@@H](CCC(=O)O)C(=O)O", "target": "rat Glutamate receptor", "test": "binding", "setting": "1 × 10 µM", "inhibition": "96%"}
{"Compound": "CCc1nn(C)c2nc(-c3ccc(C(=O)O)cc3)nc(NCc3ccc(F)cc3)c12", "target": "PDE4A (Homo sapiens, UniProt P27815)", "test": "enzyme activity", "setting": "10 µM, added: [3H]cAMP", "inhibition": "27.7%"}
{"Compound": "CC/C(=N\\NC(=O)NCc1cccc(O)c1)c1ccc(O)c(C)c1O", "target": "Casein kinase II subunit alpha', with CK2 beta (CSNK2A2, Homo sapiens, UniProt P19784)", "test": "kinase activity", "setting": "0.1 µM", "inhibition": "-1.3%"}
{"Compound": "COc1cc(C(=O)NS(=O)(=O)c2ccccc2C)ccc1Cc1cn(C)c2ccc(NC(=O)OC3CCCC3)cc12", "target": "Volume-regulated anion channel subunit LRRC8C, part LRRC8A IL1 chimera (LRRC8C, Homo sapiens, UniProt Q8TDW0, I133F)", "test": "ion current, inhibitor, whole-cell patch clamp", "test system": "HCT LRRC8-/- cells", "setting": "10 µM, +100 mV", "inhibition": "54.7% and 95.3% and 62.8% and 73.7% and 59.5%"}
{"Compound": "O=C(NO)c1ccc(CN2CCCCc3ccccc32)c(F)c1", "target": "HTR3A", "test": "radioligand binding, radioligand displacement", "setting": "10 µM", "inhibition": "-6.16%"}
{"Compound": "CC[C@@H]1[C@H](F)C(=O)N[C@@H]1COc1nccc2cc(C(N)=O)c(OC)cc12", "target": "PIK3CB", "test": "ATP-site probe binding, ActivX profiling", "test system": "THP-1 cell lysate", "setting": "0.04 mM", "inhibition": "1.2%"}
{"Compound": "O=C(CN1CCO[C@H](COc2ccccc2)C1)N1CCc2ccccc21", "target": "HTR3A", "test": "radioligand binding", "setting": "concentration not given, added: [3H]GR65630", "inhibition": "9.9%"}
{"Compound": "C[C@H]1[C@H](OC(=O)CCC(=O)O)O[C@@H]2O[C@@]3(C)CC[C@H]4[C@H](C)CC[C@@H]1[C@@]24OO3", "target": "Non-structural polyprotein pORF1, RNA-dependent RNA polymerase (Hepatitis E virus genotype 1, UniProt P33424)", "test": "polymerase activity, colorimetric", "setting": "9.7 µM", "inhibition": "29.8%"}
{"Compound": "COc1cccc(OC[C@H]2CN(CCN3CCc4ccccc43)CCO2)c1", "target": "HTR3A", "test": "radioligand binding", "setting": "concentration not given, added: [3H]GR65630", "inhibition": "-6.8%"}
{"Compound": "Cc1nn(-c2nc3ccccc3[nH]2)c(O)c1C(c1ccccn1)c1c(C)nn(-c2nc3ccccc3[nH]2)c1O", "target": "CGAS", "test": "enzyme activity, inhibitor, pyrophosphatase-coupled", "setting": "100 µM, 1.5 h, added: HT-DNA", "inhibition": "58.4%"}
{"Compound": "CNc1cc(Oc2cc(C(=O)Nc3cc(N4CCN(C)CC4)cc(C(F)(F)F)c3)ccc2C)ncn1", "target": "STK11 (Homo sapiens, UniProt Q15831)", "test": "kinase activity", "setting": "1 µM", "inhibition": "-12.4%"}
{"Compound": "Clc1cccc(OC[C@@H]2CN(CCN3CCc4ccccc43)CCO2)c1", "target": "HTR3A", "test": "radioligand binding", "setting": "concentration not given, added: [3H]GR65630", "inhibition": "8.4%"}
{"Compound": "CNc1ccc(-c2nc3ccc(O)cc3s2)cc1", "target": "Amyloid-beta precursor protein, amyloid-beta (APP, Homo sapiens, UniProt P05067)", "test": "binding, competition binding", "test system": "amyloid-beta aggregates", "setting": "11.11 nM, added: tritiated amyloid ligand", "inhibition": "78.1% and 66.7%"}
{"Compound": "C=CC1=C(C)C2=Cc3c(C=C)c(C)c4[n]3[Sn]([Cl])([Cl])[n]3c(c(C)c(CCC(=O)O)c3=CC3=NC(=C4)C(C)=C3CCC(=O)O)=CC1=N2", "target": "Trypanothione synthetase (Leishmania infantum, UniProt A4I2Z3)", "test": "enzyme activity", "setting": "25 µM", "inhibition": "5.1 ± 7.4%"}
{"Compound": "c1cncc(OC[C@H]2CN(CCN3CCc4ccccc43)CCO2)c1", "target": "HTR3A", "test": "radioligand binding", "setting": "concentration not given, added: [3H]GR65630", "inhibition": "-16%"}
{"Compound": "C#Cc1cc(-c2cc(Nc3nc(N[C@@H](C)c4ccc(F)cn4)ncc3Cl)n[nH]2)ccc1C=O", "target": "NTRK1 (Homo sapiens, UniProt P04629, G595R/G667A)", "test": "enzyme activity, inhibitor", "setting": "0.2 µM", "inhibition": "107%"}
{"note": "A few entries again:"}
{"Compound": "COc1cc(C(=O)NS(=O)(=O)c2ccccc2C)ccc1Cc1cn(C)c2ccc(NC(=O)OC3CCCC3)cc12", "target": "Volume-regulated anion channel subunit LRRC8C, part LRRC8A IL1 chimera (LRRC8C, Homo sapiens, UniProt Q8TDW0, I133F)", "test": "ion current, inhibitor, whole-cell patch clamp", "test system": "HCT LRRC8-/- cells", "setting": "10 µM, +100 mV", "inhibition": "54.7% and 95.3% and 62.8% and 73.7% and 59.5%"}
{"Compound": "CNc1cc(Oc2cc(C(=O)Nc3cc(N4CCN(C)CC4)cc(C(F)(F)F)c3)ccc2C)ncn1", "target": "STK11 (Homo sapiens, UniProt Q15831)", "test": "kinase activity", "setting": "1 µM", "inhibition": "-12.4%"}
{"Compound": "Cc1nn(-c2nc3ccccc3[nH]2)c(O)c1C(c1ccccc1C(=O)O)c1c(C)nn(-c2nc3ccccc3[nH]2)c1O", "target": "CGAS", "test": "enzyme activity, inhibitor, PPiase-coupled", "setting": "12.5 µM, 1.5 h", "inhibition": "74.2%"}
{"Compound": "OO", "target": "Histone acetyltransferase GCN5, with Ada2 and Ada3 (Saccharomyces cerevisiae S288c, UniProt Q03330)", "test": "enzyme activity", "setting": "1 mM, added: Gcn5-Ada2-Ada3 complex, without DTT", "inhibition": "8 ± 8%"}
{"Compound": "COc1ccc(F)cc1C(=O)NCc1ccc(-c2nn([C@@H](C)C(F)(F)F)c(N)c2C(N)=O)cc1", "target": "PIK3CB", "test": "target engagement, competitive chemoproteomics", "test system": "human PBMCs", "setting": "10 µM", "inhibition": "9.1%"}
